Experimental data gathered from unrelated publications.
Compare with care: the assays were run in different laboratories. Numbers after ± are the reported error.

CC[C@H](C)[C@H](NC(=O)CN)C(=O)NCC(=O)N[C@@H](C)C(=O)N[C@H](C(=O)N[C@@H](CC(C)C)C(=O)N[C@@H](CCCCN)C(=O)N[C@H](C(=O)N[C@@H](CC(C)C)C(=O)N[C@H](C(=O)N[C@H](C(=O)NCC(=O)N[C@@H](CC(C)C)C(=O)N1CCC[C@H]1C(=O)N[C@@H](C)C(=O)N[C@@H](CC(C)C)C(=O)N[C@H](C(=O)N[C@@H](CO)C(=O)N[C@@H](Cc1c[nH]c2ccccc12)C(=O)N[C@H](C(=O)N[C@@H](CCCCN)C(=O)N[C@@H](CCCNC(=N)N)C(=O)N[C@@H](CCCCN)C(=O)N[C@@H](CCCNC(=N)N)C(=O)N[C@@H](CCC(N)=O)C(=O)N[C@@H](CCC(N)=O)C(N)=O)[C@@H](C)CC)[C@@H](C)CC)[C@@H](C)O)[C@@H](C)O)C(C)C)C(C)C
IC50 (MCF7 FAP-transfected; cell viability, MTT; 72 h): 1.3 ± 0.2 µM

Cc1ccc(C(c2c(C)nn(-c3ccccc3)c2O)c2c(C)nn(-c3ccccc3)c2O)cc1
IC50 (Ishikawa; cell growth or viability, MTT; 48 h): > 40 µM

CC(=O)N[C@@H](Cc1c[nH]cn1)C(=O)N[C@@H](CCCNC(=N)N)C(=O)N[C@@H](CCCNC(=N)N)C(=O)N[C@@H](CCCNC(=N)N)C(=O)N[C@@H](CCCNC(=N)N)C(=O)N[C@@H](CCCNC(=N)N)C(=O)N[C@@H](CCCNC(=N)N)C(=O)N[C@@H](CCCNC(=N)N)C(=O)N[C@@H](CCCNC(=N)N)C(=O)N[C@@H](Cc1c[nH]cn1)C(N)=O
IC50 (VX2; MTT; 24 h): 12.4 ± 1.18 µM

C[C@H]1C(OCCCCCCCCC[P+](c2ccccc2)(c2ccccc2)c2ccccc2)O[C@@H]2O[C@@]3(C)CCC4[C@H](C)CCC1[C@]42OO3 (stereo partly shown)
IC50 (OVCAR-3; cell growth or viability, MTT; 72 h): 0.0956 µM

C#CCN[C@@H]1C=C[C@]2(O[C@H]([C@@H](CC)C(=O)[C@@H](C)[C@@H](O)[C@H](C)[C@@H]3O[C@@H]([C@@H](CC)C(=O)O)CC[C@@H]3C)[C@@H](C)C[C@H]2C)O[C@@]12CC[C@@](C)([C@H]1CC[C@](O)(CC)[C@H](C)O1)O2
IC50 (HMLER CD24low/CD44high; CellTiter-Blue; 72 h): 0.17 ± 0.02 µM

Cc1cc(C)c(N2CCN(c3c(C)cc(C)cc3C)C2=[Se])c(C)c1.[Cl][Ag]
IC50 (A-375; cell growth or viability, MTT; 72 h): 0.6 µM

CC1=CC(C)=[N+]2C1=Cc1ccc(CCC(=O)NCC3C[NH][Pt]([Cl])([Cl])[NH]3)n1[B-]2(F)F (stereo not shown)
IC50 (KB-3-1 spheroids in 3D Matrigel; cytotoxicity, CellTiter-Glo; 4 days, pre-grown 4 days): 141 ± 6.6 µM

C[C@@H](N)[C@H](O)CCCCCCCC(=O)CCCCCCCCCCCCCC[C@@H](O[C@@H]1O[C@H](CO)[C@H](O)[C@H](O)[C@H]1O)[C@H](N)CO
IC50 (HCC70; cell growth or viability, resazurin; 96 h): 5.77 µM

[Cl][Ag].[Se]=c1n(C2CCCCC2)ccn1C1CCCCC1
IC50 (A2780 ADR; MTT; 72 h): 3.3 ± 0.8 µM

CNC(=O)c1cc(Oc2ccc(NC(=O)c3ccc(-c4cccc(OC(=O)CCC(=O)OC5OC6OC7(C)CCC8C(C)CCC(C5C)C68OO7)c4)cn3)cc2)ccn1 (stereo not shown)
IC50 (Hep3B; cell growth or viability, MTT; 72 h): 4.06 µM
